Results gathered from unrelated publications.
Each line is one published result; not all experiments were run side by side. Values joined by “and” are separate records of one study, mostly repeats; a detail may differ. ± gives the spread as reported.
VKORC1: Vitamin K epoxide reductase complex subunit 1 (VKORC1, Homo sapiens, UniProt Q9BQB6)
Chain of UniProt Q9BQB6 (whole entry, looked up): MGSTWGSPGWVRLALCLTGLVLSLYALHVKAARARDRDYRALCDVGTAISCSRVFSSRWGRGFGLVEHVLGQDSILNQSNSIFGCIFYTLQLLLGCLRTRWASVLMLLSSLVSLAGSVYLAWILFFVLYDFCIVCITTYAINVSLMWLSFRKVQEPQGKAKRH
MARS2: Methionine--tRNA ligase, mitochondrial (MARS2, Homo sapiens, UniProt Q96GW9)
Chain of UniProt Q96GW9 (whole entry, looked up): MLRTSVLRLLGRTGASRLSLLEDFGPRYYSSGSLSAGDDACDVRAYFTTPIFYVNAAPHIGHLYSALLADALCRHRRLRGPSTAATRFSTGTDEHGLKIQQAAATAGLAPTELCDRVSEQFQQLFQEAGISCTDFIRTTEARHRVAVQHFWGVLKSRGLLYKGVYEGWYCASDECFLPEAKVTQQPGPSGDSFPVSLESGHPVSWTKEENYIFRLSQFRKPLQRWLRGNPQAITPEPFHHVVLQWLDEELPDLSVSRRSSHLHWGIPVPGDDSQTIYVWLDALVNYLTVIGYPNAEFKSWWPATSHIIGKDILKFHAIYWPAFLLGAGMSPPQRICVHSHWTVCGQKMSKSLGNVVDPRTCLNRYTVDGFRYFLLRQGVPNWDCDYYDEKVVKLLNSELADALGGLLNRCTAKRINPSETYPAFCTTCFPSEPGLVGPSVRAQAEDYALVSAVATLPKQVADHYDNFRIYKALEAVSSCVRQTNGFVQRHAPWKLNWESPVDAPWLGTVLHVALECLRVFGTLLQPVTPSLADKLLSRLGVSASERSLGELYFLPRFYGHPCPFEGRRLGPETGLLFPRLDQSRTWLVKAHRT
gag-pol reverse transcriptase: Gag-Pol polyprotein, reverse transcriptase (gag-pol, Human immunodeficiency virus 1, UniProt P03366)
Gria2: Glutamate receptor 2 (Gria2, Rattus norvegicus, UniProt P19491)
Chain of UniProt P19491 (whole entry, looked up): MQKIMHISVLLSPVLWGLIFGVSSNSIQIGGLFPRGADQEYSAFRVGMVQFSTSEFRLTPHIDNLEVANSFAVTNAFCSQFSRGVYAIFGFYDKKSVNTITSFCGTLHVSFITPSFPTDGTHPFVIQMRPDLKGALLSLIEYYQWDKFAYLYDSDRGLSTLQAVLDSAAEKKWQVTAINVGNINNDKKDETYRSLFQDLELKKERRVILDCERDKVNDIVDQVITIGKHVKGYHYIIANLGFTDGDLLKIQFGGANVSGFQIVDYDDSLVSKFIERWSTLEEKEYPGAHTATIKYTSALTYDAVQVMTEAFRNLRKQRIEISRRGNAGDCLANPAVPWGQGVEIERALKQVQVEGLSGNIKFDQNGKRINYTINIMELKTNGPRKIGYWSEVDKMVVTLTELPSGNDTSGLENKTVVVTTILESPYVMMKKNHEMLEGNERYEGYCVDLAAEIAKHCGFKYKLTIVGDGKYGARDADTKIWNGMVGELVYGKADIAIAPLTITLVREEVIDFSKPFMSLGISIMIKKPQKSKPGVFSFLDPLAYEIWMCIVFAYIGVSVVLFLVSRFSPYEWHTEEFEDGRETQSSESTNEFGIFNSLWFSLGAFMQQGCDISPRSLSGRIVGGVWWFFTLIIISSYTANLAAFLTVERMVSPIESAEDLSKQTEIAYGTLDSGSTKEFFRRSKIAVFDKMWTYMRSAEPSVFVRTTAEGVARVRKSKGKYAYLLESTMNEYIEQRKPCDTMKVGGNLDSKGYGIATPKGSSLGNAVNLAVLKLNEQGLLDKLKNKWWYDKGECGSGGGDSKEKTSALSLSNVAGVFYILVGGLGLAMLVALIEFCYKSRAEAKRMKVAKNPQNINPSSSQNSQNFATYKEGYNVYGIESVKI
CDK4: Cyclin-dependent kinase 4 (CDK4, Homo sapiens, UniProt P11802)
Chain of UniProt P11802 (whole entry, looked up): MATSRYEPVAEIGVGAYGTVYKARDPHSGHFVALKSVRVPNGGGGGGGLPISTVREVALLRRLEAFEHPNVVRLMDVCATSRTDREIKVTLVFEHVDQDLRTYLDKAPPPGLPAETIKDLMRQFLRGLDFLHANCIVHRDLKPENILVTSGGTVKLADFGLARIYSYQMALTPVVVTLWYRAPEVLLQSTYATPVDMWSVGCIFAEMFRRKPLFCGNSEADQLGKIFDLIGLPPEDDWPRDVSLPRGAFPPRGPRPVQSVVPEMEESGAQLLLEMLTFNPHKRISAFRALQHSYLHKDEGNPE
DYRK1A: Dual specificity tyrosine-phosphorylation-regulated kinase 1A (DYRK1A, Homo sapiens, UniProt Q13627)
DDR2: Discoidin domain-containing receptor 2 (DDR2, Homo sapiens, UniProt Q16832)
Chain of UniProt Q16832 (whole entry, looked up): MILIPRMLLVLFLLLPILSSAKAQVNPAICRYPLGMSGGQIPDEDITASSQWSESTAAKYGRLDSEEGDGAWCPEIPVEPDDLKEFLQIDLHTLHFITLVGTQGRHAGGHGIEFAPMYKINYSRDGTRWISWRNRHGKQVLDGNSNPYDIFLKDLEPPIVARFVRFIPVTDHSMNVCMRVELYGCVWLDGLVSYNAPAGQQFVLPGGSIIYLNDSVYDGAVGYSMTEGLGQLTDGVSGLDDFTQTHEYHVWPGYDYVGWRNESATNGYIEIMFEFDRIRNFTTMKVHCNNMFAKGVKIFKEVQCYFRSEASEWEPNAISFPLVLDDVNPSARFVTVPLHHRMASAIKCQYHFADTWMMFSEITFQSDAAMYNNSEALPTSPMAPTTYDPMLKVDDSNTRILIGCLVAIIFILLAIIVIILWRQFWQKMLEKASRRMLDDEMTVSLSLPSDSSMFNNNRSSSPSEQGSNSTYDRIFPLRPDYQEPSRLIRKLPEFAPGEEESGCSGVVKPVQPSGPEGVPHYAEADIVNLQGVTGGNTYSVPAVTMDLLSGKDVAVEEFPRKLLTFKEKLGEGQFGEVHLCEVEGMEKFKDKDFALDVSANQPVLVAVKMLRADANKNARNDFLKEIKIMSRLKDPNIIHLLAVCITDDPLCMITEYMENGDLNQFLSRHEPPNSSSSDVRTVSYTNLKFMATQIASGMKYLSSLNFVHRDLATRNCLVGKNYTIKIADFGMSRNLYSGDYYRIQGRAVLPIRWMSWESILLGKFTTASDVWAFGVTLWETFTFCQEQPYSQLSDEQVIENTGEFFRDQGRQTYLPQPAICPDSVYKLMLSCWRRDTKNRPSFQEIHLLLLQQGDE
HDAC11: Histone deacetylase 11 (HDAC11, Homo sapiens, UniProt Q96DB2)
Chain of UniProt Q96DB2 (whole entry, looked up): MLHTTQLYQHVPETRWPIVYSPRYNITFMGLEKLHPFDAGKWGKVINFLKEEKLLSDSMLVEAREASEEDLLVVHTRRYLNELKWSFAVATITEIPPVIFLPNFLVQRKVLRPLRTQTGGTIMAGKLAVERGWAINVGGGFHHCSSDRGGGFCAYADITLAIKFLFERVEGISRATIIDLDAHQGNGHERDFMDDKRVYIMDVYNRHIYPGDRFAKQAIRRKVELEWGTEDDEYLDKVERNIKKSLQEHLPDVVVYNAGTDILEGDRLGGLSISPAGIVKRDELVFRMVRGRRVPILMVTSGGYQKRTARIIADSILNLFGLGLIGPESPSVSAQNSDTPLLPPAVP
SIRT5: NAD-dependent protein deacylase sirtuin-5, mitochondrial (SIRT5, Homo sapiens, UniProt Q9NXA8)
Chain of UniProt Q9NXA8 (whole entry, looked up): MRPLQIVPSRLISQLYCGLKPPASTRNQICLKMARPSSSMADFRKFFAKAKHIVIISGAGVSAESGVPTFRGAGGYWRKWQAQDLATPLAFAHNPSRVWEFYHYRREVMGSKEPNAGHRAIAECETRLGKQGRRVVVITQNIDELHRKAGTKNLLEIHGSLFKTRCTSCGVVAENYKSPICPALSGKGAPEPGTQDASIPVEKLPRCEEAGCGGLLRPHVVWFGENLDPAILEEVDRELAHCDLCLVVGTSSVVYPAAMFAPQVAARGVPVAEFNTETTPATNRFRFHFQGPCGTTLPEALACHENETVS
MAOA: Amine oxidase [flavin-containing] A (MAOA, Homo sapiens, UniProt P21397)
Chain of UniProt P21397 (whole entry, looked up): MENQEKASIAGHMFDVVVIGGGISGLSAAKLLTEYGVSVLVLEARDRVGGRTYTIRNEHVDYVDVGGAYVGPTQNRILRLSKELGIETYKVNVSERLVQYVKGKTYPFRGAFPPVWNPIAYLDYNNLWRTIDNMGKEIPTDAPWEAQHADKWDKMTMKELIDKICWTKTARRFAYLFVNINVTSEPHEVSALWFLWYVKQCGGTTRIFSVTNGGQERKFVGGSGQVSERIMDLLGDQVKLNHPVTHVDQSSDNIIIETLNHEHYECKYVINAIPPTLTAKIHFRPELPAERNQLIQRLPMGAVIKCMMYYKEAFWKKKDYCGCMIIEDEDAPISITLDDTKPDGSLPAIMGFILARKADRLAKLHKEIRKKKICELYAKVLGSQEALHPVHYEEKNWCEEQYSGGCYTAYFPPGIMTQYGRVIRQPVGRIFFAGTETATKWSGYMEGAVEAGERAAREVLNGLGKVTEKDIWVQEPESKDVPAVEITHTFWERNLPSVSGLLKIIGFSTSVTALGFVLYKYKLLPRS
Chain of UniProt P09936 (whole entry, looked up): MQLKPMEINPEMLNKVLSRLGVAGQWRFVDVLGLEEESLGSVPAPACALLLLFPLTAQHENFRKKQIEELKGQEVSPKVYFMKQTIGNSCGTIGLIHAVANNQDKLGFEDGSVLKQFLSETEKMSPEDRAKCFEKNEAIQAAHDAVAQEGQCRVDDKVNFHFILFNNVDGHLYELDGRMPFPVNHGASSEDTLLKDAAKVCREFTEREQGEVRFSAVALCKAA
Chain of UniProt P30968 (whole entry, looked up): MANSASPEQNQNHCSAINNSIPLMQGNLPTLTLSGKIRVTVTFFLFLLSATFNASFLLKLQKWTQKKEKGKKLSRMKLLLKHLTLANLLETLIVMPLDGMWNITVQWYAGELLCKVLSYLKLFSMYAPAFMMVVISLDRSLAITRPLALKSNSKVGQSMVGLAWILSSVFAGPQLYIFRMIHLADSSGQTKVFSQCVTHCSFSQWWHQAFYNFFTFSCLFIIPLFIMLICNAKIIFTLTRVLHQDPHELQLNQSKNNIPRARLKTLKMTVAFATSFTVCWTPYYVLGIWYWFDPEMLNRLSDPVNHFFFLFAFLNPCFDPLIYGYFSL
Chain of UniProt Q13148 (102-269, looked up): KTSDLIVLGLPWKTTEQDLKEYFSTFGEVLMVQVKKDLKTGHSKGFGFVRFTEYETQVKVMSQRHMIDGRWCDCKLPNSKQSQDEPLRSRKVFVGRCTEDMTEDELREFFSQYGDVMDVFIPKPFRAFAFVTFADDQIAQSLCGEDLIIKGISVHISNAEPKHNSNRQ

`CC(C)(C)OC(=O)N1CCN(c2ccc3c(O)c(C(=O)NCc4ccc(C#N)nc4)ncc3n2)CC1` has an IC50 of 1.2 nM (EGLN2 (Homo sapiens, UniProt Q96KS0); enzyme activity, inhibitor, AlphaScreen; added: CODD peptide, Fe(II) 10 µM).
`COc1ccc2c(c1)CN(C(=O)CCN1CCC(Cc3ccccc3)CC1)CCS2` gave an IC50 of over 100000 nM (KCNJ2 (Homo sapiens, UniProt P63252); IK1 current, inhibitor, whole-cell patch clamp; stable cell line).
For `Cc1cccc(C(=O)N2CCCC(Cn3nnc4c(O)nc(C)nc43)C2)c1` (stereo not drawn), the IC50 was over 100000 nM (VKORC1; carboxylation, inhibitor, ELISA; HEK293 stably expressing; 24 h, added: vitamin K epoxide 5 µM).
The IC50 of `FC(F)(CNCc1cc(Cl)cc(Cl)c1)CNc1nc2cccnc2[nH]1` is reported as 269 nM (MARS2; enzyme activity, inhibitor).
For `N#Cc1ccc(Nc2nc(N)cc(Oc3c(F)cc(-c4cccc(C#N)c4)cc3F)n2)cc1`, the IC50 was 120 nM (gag-pol reverse transcriptase; enzyme activity, inhibitor).
`COC(=O)Cc1cc2c(cc1C(=O)c1cccc(I)c1)OCO2` gave an IC50 of 5630 nM (Gria2; ion current, patch clamp).
`CC(C)C[C@H](NC(=O)[C@@H](CCCCNC(=O)[C@@H](Cc1ccccc1)NC(=O)CCNC(=O)CN1CCN(CC(=O)O)CCN(CC(=O)O)CCN(CC(=O)O)CC1)NC(=O)[C@H](Cc1ccc(O)cc1)NC(=O)[C@H](CO)NC(=O)[C@H](Cc1c[nH]c2ccccc12)NC(=O)[C@H](Cc1c[nH]cn1)NC(=O)[C@@H]1CCC(=O)N1)C(=O)N[C@@H](CCCNC(=N)N)C(=O)N1CCC[C@H]1C(=O)NCC(N)=O` has an IC50 of 13.5 nM (GNRHR (Homo sapiens, UniProt P30968); ligand displacement, radioligand; pH 7.4, cell membranes).
With `COC(=O)CCCCCNC(=O)Cc1ccc(Nc2ncc(F)c(-c3cc(F)c4nc(C)n(C(C)C)c4c3)n2)cc1` the IC50 was 2 nM (CDK4).
The IC50 of `Nc1ncc2c(n1)-c1c([nH]c3ccc(C4=CCOCC4)cc13)CCC2` is reported as over 10000 nM (DYRK1A; target engagement in cells, BRET).
With `Sc1nc[nH]n1` the IC50 was 7690 ± 2180 nM (TAR DNA-binding protein 43, residues 102-269 (TARDBP, Homo sapiens, UniProt Q13148); protein-RNA binding, inhibitor, fluorescence polarization; 40 nM protein, added: 10 nM RNA).
`CC(=O)OC1CCC2(C)C(CCC3(C)C2CC=C2C4C(C)C(C)CCC4(C(=O)O)CCC23C)C1(C)C` (stereo not drawn) gave an IC50 of over 100000 nM (UGT1A7 (Homo sapiens, UniProt Q9HAW7); enzyme activity, inhibitor).
`Cc1cc(C)c(S(=O)(=O)N(CC(=O)O)c2ccc(Nc3ccnc(N4CCCC4)n3)cc2)c(C)c1` has an IC50 of over 100000 nM (CDK4; enzyme activity, inhibitor).
With `O=C(O)c1cc(C(=O)CC(=O)c2cc(C(=O)O)c(O)c3ccccc23)c2ccccc2c1O` the IC50 was 26100 ± 2590 nM (Trex1 (Mus musculus, UniProt Q91XB0); exonuclease activity, inhibitor; added: dsDNA substrate).
`CC(C)(COP(=O)(O)OP(=O)(O)OC[C@H]1O[C@@H](n2cnc3c(N)ncnc32)[C@H](O)[C@@H]1OP(=O)(O)O)[C@@H](O)C(=O)NCCC(=O)NCCSCC(=O)N[C@@H](CO)C(=O)NCC(=O)N[C@@H](CCCNC(=N)N)C(=O)NCC(=O)N[C@@H](CCCCN)C(N)=O` has an IC50 of 116 nM (NAA40 (Homo sapiens, UniProt Q86UY6); enzyme activity, inhibitor, fluorescence).
`O=C(CN1CN(c2cccc(F)c2)C2(CCN(C(=O)c3cnc4[nH]ncc4c3)CC2)C1=O)NCC(F)(F)F` gave an IC50 of 3250 nM (DDR2; ligand displacement).
`CC[C@H](C)[C@@H]1NC(=O)[C@H](Cc2ccccc2C(F)(F)F)NC(=O)CCSCc2cccc(n2)CSCCCNC(=O)[C@H](CCCCCC(=O)NO)NC1=O` gave an IC50 of 2300 nM (HDAC11; enzyme activity, inhibitor, fluorescence).
With `Clc1cc(Cl)cc(CNCCCNc2nc3ccccc3[nH]2)c1` the IC50 was 157 nM (MARS2; enzyme activity, inhibitor).
`COC(=O)CCCCCCC(=O)Nc1ccc(Nc2ncc(F)c(-c3cc(F)c4nc(C)n(C(C)C)c4c3)n2)nc1` has an IC50 of 2.9 nM (CDK4).
For `O=C(NC1CCC1)[C@H](Cc1c[nH]c2ccccc12)NC(=O)[C@H](CCCCNC(=S)NCCc1cc(O)n[nH]1)NS(=O)(=O)c1cccc(F)c1`, the IC50 was 32000 ± 1000 nM (SIRT5; enzyme activity, inhibitor).
With `Cc1c(OS(=O)(=O)Oc2ccc(C(C)C)cc2)cccc1C(=O)NO` the IC50 was 321 nM (HDAC11).
With `COC(=O)CCCCCC(=O)Nc1ccc(Nc2ncc(F)c(-c3cc(F)c4nc(C)n(C(C)C)c4c3)n2)cc1` the IC50 was 2.1 nM (CDK4).
`Cc1cc(O)c2c(c1)C(=O)c1c(O)c(O)cc(O)c1C2=O` has an IC50 of 20800 nM and ~20000 nM (MAOA; enzyme activity, inhibitor).
`Cc1cc(NC2CCN(C)CC2)ccc1-c1cc2c(N3CCC[C@H](C(=O)NCc4ccc(OC(F)(F)F)cc4)C3)ncnc2[nH]1` gave an IC50 of over 8000 nM (DYRK1A; enzyme activity, inhibitor, mobility shift).
The IC50 of `Cc1nc2c(F)cc(-c3nc(Nc4ccc(NC(=O)CCCCCCC(=O)O)cc4)ncc3F)cc2n1C(C)C` is reported as 2.2 nM (CDK4).
For `COc1ccc(C2=[N+]3C(=C(CCCCc4cn(CC(=O)N5CCc6nc(NC(=O)[C@H]7CCN(C#N)C7)sc6C5)nn4)c4ccc(-c5ccc(OC)cc5)n4[B-]3(F)F)C=C2)cc1`, the IC50 was 3600 nM (UCHL1 (Homo sapiens, UniProt P09936); enzyme activity, inhibitor, fluorescence; with preincubation).
With `O=C(NCC(F)(F)c1ccc(Cl)cc1Cl)c1cc(Cl)nnc1Oc1cccc(C2CC2)c1` the IC50 was 4 ± 1000 nM (serine palmitoyltransferase (Botrytis cinerea, UniProt A0A384JAG3+A0A384JQT2)).
`N=C(N)NCCC[C@H](NC(=O)[C@H](CCCCNC(=S)NCCC(=O)O)NS(=O)(=O)c1cccc(F)c1)C(=O)NC1CCC1` gave an IC50 of 103 ± 5 nM (SIRT5; inhibitor, fluorogenic; pre-incubation 24 h, added: NAD+ 500 µM).
`Cc1nn(-c2cccc(N)c2)c(=O)c2cnc(Nc3ccc(N4CCNCC4)cc3)nc12` has an IC50 of over 10000 nM (MTOR (Homo sapiens, UniProt P42345); enzyme activity, inhibitor).
`O=C(CN1CN(c2ccc(Cl)c(Cl)c2)C2(CCN(C(=O)c3ccc4[nH]ncc4c3)CC2)C1=O)NCC(F)(F)F` has an IC50 of 28600 nM (DDR2; ligand displacement).
For `Cc1ccc(-n2nc(C(=O)Nc3cccc(C(N)=O)c3)cc2-c2ccc(CC(C)C)cc2)cc1`, the IC50 was 6500 nM (Genome polyprotein, NS2B-NS3 protease (dengue virus type 2, UniProt P29990); enzyme activity; added: AMC substrate 50 µM).
With `COC(=O)CCCNC(=O)Cc1ccc(Nc2ncc(F)c(-c3cc(F)c4nc(C)n(C(C)C)c4c3)n2)cc1` the IC50 was 1.6 nM (CDK4).
`C=CC(=O)N1C[C@H](C)N(c2nc(OC[C@@]34CCCN3C[C@H](F)C4)nc3c(F)c(-c4ccc(F)c5sc(N)c(C#N)c45)c(C(F)(F)F)cc23)C[C@H]1C` has an IC50 of 480 ± 70 nM (GTPase KRas, GppNHp; with RAF1 RBD (KRAS, Homo sapiens, UniProt P01116, A146T)).
`CCOc1cc(CN2CCC3(CC2)CN(c2ccc(C(=O)O)cc2)C(=O)N3)c(C2CC2)cc1C` gave an IC50 of 13.5 nM (SSTR5 (Homo sapiens, UniProt P35346, D119A); cAMP level, antagonist, GloSensor; AD293; D119A mutant, bandwidth 3.32, added: CST17 EC80 and forskolin).
`O=C1CCC(N2C(=O)c3ccc(N4CC(C(=O)N5CC(CN6CCC(CNC(=O)c7cccc(-c8noc(C(F)(F)F)n8)c7)(c7nc(-c8ccccc8)cs7)CC6)C5)C4)cc3C2=O)C(=O)N1` (stereo not drawn) gave an IC50 of 1290 nM (HDAC4 (Homo sapiens, UniProt P56524)).
The IC50 of `O=C(CN1CN(c2ccccc2)C2(CCN(C(=O)c3ccc4[nH]ncc4c3)CC2)C1=O)Nc1ccccc1` is reported as 344 nM (DDR2; ligand displacement).
The IC50 of `COC(=O)CCCCCCC(=O)Nc1ccc(Nc2ncc(F)c(-c3cc(F)c4nc(C)n(C(C)C)c4c3)n2)cc1` is reported as 2.2 nM (CDK4).
The IC50 of `O=C(CCc1ccc(CNC(C(=O)O)C2CCCCC2)cn1)NO` (stereo not drawn) is reported as 871 nM (HDAC11; enzyme activity, inhibitor).
`O=C(O)Cc1cc2c(cc1C(=O)c1cccc(Cl)c1)OCO2` has an IC50 of 3890 nM (Gria2; glutamate-evoked current, inhibitor, whole-cell patch clamp; HEK293T, homomeric receptor).
The IC50 of `C[C@H](Cn1nnc2ccccc21)NC(=O)Cn1cnc2ccccc2c1=O` is reported as 9020 nM (VKORC1; carboxylation, inhibitor, ELISA; HEK293 stably expressing; 24 h, added: vitamin K epoxide 5 µM).
For `CC(C)c1ccc(/C=C/C(=O)c2ccc(O)cc2)cc1`, the IC50 was 1590 nM (MAOA; enzyme activity, inhibitor).
`O=C1NCc2nc3c(ccc4ccccc43)cc21` has an IC50 of 300 nM (DYRK1A; enzyme activity, inhibitor, ADP detection).
`C#CCNc1c2c([nH]c(=O)c1C(=O)OCC)CCC2` has an IC50 of over 100000 nM (gag-pol reverse transcriptase; enzyme activity, inhibitor).
`Cc1nc(O)c2nnn(C[C@@H]3CCCN(C(=O)c4ccc(F)cc4F)C3)c2n1` gave an IC50 of over 100000 nM (VKORC1; carboxylation, inhibitor, ELISA; HEK293 stably expressing; 24 h, added: vitamin K epoxide 5 µM).
`COC(=O)CCCCNC(=O)Cc1ccc(Nc2ncc(F)c(-c3cc(F)c4nc(C)n(C(C)C)c4c3)n2)cc1` gave an IC50 of 1.6 nM (CDK4).
With `CCCCCCN(O)C(=O)CCCCC[C@@H]1NC(=O)[C@H](CCSC)NC(=O)CCSCc2cccc(n2)CSCCNC(=O)[C@H](Cc2ccc(Cl)cc2Cl)NC1=O` the IC50 was 210 nM (HDAC11; enzyme activity, inhibitor, fluorescence).

Repeated from above:
For `COc1ccc(C2=[N+]3C(=C(CCCCc4cn(CC(=O)N5CCc6nc(NC(=O)[C@H]7CCN(C#N)C7)sc6C5)nn4)c4ccc(-c5ccc(OC)cc5)n4[B-]3(F)F)C=C2)cc1`, the IC50 was 3600 nM (UCHL1 (Homo sapiens, UniProt P09936); enzyme activity, inhibitor, fluorescence; with preincubation).
With `O=C(NCC(F)(F)c1ccc(Cl)cc1Cl)c1cc(Cl)nnc1Oc1cccc(C2CC2)c1` the IC50 was 4 ± 1000 nM (serine palmitoyltransferase (Botrytis cinerea, UniProt A0A384JAG3+A0A384JQT2)).
`N=C(N)NCCC[C@H](NC(=O)[C@H](CCCCNC(=S)NCCC(=O)O)NS(=O)(=O)c1cccc(F)c1)C(=O)NC1CCC1` gave an IC50 of 103 ± 5 nM (SIRT5; inhibitor, fluorogenic; pre-incubation 24 h, added: NAD+ 500 µM).
`Cc1nn(-c2cccc(N)c2)c(=O)c2cnc(Nc3ccc(N4CCNCC4)cc3)nc12` has an IC50 of over 10000 nM (MTOR (Homo sapiens, UniProt P42345); enzyme activity, inhibitor).
`O=C(CN1CN(c2ccc(Cl)c(Cl)c2)C2(CCN(C(=O)c3ccc4[nH]ncc4c3)CC2)C1=O)NCC(F)(F)F` has an IC50 of 28600 nM (DDR2; ligand displacement).
